{"data": "Results of several laboratories", "Lin28a": "Lin28a 119-180 (Mus musculus, UniProt Q8K3Y3)", "note": "± marks the error that the study gave.", "chain of UniProt Q8K3Y3 (whole entry, looked up)": "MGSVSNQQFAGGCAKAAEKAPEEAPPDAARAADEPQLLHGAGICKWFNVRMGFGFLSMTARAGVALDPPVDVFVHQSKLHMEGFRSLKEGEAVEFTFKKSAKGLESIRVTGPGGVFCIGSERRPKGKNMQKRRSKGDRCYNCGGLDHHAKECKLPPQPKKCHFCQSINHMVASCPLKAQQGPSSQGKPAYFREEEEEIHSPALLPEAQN", "chain of UniProt P20366 (whole entry, looked up)": "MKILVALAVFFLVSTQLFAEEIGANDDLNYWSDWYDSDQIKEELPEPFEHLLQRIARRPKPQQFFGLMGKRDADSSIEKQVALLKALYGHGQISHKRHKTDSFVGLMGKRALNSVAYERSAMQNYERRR", "chain of UniProt Q97ZE3 (whole entry, looked up)": "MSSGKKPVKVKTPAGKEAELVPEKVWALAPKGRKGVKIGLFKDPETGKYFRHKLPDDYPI", "chain of UniProt Q9NWB1 (whole entry, looked up)": "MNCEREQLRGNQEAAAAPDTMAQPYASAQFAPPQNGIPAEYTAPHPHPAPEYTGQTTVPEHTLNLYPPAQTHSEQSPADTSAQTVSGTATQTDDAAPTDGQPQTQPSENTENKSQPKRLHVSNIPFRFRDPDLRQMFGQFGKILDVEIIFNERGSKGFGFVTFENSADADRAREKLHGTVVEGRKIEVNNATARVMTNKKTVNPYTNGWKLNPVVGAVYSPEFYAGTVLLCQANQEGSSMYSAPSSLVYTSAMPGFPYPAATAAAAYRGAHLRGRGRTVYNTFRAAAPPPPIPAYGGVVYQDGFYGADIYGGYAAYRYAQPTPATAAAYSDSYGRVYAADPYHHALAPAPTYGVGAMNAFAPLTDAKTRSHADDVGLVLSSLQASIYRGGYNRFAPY", "chain of UniProt P50534 (whole entry, unmodified, looked up)": "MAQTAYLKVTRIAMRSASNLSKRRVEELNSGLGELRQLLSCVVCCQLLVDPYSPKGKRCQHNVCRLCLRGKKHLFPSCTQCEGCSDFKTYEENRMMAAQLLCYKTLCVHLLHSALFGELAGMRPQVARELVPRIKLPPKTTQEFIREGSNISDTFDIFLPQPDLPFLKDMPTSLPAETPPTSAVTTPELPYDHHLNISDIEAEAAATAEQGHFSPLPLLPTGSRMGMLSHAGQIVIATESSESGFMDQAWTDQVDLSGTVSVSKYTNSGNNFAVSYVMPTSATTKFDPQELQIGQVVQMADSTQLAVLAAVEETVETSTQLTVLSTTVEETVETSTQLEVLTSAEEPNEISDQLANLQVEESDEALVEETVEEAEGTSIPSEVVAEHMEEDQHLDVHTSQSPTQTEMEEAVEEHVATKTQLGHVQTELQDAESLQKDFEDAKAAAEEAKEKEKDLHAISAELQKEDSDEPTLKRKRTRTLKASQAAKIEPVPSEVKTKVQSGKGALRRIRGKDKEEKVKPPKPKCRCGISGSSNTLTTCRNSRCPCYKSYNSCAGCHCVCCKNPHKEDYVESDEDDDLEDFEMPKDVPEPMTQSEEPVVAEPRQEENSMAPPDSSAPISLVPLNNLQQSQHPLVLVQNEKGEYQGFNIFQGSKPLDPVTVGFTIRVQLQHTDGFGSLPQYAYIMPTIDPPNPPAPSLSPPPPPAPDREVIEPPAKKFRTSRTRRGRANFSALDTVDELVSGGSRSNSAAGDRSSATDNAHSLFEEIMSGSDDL", "chain of UniProt P35208 (whole entry, looked up)": "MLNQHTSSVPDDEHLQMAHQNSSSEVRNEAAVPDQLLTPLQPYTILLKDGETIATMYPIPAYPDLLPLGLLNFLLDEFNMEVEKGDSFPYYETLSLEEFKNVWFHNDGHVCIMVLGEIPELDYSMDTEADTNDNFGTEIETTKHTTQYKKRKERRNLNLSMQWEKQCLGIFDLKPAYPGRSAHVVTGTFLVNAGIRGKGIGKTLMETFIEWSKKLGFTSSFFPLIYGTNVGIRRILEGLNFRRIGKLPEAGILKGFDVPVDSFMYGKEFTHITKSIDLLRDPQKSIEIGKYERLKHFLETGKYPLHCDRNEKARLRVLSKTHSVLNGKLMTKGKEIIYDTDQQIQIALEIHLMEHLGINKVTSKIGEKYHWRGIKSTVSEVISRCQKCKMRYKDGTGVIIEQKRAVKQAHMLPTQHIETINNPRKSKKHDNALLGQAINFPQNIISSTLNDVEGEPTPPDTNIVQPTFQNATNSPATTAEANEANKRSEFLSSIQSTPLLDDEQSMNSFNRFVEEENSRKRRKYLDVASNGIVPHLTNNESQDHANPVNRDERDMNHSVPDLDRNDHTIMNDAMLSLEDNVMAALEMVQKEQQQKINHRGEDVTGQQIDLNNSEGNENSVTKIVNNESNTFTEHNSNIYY", "chain of UniProt Q15717 (whole entry, looked up)": "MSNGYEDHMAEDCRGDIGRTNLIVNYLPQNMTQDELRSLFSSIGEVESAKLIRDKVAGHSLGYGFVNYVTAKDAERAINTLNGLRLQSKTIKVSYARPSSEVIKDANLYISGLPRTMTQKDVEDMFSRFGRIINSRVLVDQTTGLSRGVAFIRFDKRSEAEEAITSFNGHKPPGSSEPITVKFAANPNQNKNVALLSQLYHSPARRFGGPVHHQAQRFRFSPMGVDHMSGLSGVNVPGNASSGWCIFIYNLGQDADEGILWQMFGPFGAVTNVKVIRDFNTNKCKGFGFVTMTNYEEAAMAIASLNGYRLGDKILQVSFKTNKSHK"}
{"Sequence": "UAGCUUAUCAGACUGAUGUUGACUGUUGCAUGUCAUGGCAACACCAGUCGAUGGGCUGU (structured RNA)", "target": "RBFOX1 109-208 (Homo sapiens, UniProt Q9NWB1)", "technique": "ITC", "molecule type": "folded RNA", "Kd [nM]": "252 ± 43"}
{"Sequence": "GCAGAUUGAGGGUCUAUGCUACCACCCGGUACAAAAGAUAUCUGCA (structured RNA)", "target": "Lin28a", "technique": "EMSA", "molecule type": "folded RNA", "Kd [nM]": "8 ± 2"}
{"Sequence": "GATCCCCCAATGCTTCGTTTCGTATCACACACCCCAAAGCCTTCTGCTTTGAATGCTGCC (dsDNA; 60 bp duplex)", "target": "creN7 1-60 (Saccharolobus solfataricus, UniProt Q97ZE3)", "technique": "EMSA", "molecule type": "double-stranded DNA, one strand shown", "notes": "apparent", "Kd [nM]": 113}
{"Sequence": "ATGAGCGAGATG (dsDNA)", "target": "msl-2 520-570 C560G (Drosophila melanogaster, UniProt P50534)", "technique": "NMR titration", "molecule type": "double-stranded DNA, one strand shown", "notes": "apparent, stoichiometry fixed", "Kd [nM]": 2700}
{"Sequence": "GCAGAUUGACGGUCUAUGAUACCACCCGGUACAGGAGAUAUCUGCA (structured RNA)", "target": "Lin28a", "technique": "EMSA", "molecule type": "folded RNA", "Kd [nM]": "9 ± 2"}
{"Sequence": "CAGTGCGACACGGCATGCCTG (dsDNA; blunt; central CpG 5mC both strands)", "target": "Mecp2 78-164 (Rattus norvegicus, UniProt Q00566)", "technique": "EMSA", "molecule type": "double-stranded DNA, one strand shown", "notes": "NaCl 125 mM", "Kd [nM]": 14.1}
{"Sequence": "GCAGAUUGAGGGUCUAUGAUACCAACCGGUACAGGAGAUAUCUGCA (structured RNA)", "target": "Lin28a", "technique": "EMSA", "molecule type": "folded RNA", "Kd [nM]": "2.1 ± 0.5"}
{"Sequence": "GCCTCACTGTGCGAAGCTATTGGAATGGAGTGTA (dsDNA)", "target": "SPT10 283-640 (Saccharomyces cerevisiae, UniProt P35208)", "technique": "EMSA", "molecule type": "double-stranded DNA, one strand shown", "Kd [nM]": "99 ± 4"}
{"Sequence": "GCAGAUUGAGGGUCUAUGAUACCACCCGGUACAGGAGAUAUCUGCA (structured RNA)", "target": "Lin28a", "technique": "EMSA", "molecule type": "folded RNA", "Kd [nM]": "1.3 ± 0.3"}
{"Sequence": "GGCGCAGGUGGGUAAAGGGGUGUGAUCGAGGGUCGAGAGGCGCC (L-RNA; mirror-image, 44 nt)", "target": "substance P residues 58-68 (UniProt P20366)", "technique": "ITC", "temperature": "37 °C", "Kd [nM]": 40}
{"Sequence": "TGTGTTAGTTGGGGGGTGACTGTTAAAAGTGCATACCGCCAAAAGATAAAA (dsDNA)", "target": "POLRMT/TFB2M 43-1230; 21-396 (Homo sapiens)", "technique": "fluorescence anisotropy", "molecule type": "double-stranded DNA, one strand shown", "together with": "ATP 1 mM", "Kd [nM]": 6.33}
{"Sequence": "GCTGAGCTTCTGGTGAAGCTCAGCTCGCGGCAGCTGGTGCTGCCGCGA (dsDNA; dumbbell, central nick, 5' phosphate)", "target": "PARP2 full length 1-570 (Homo sapiens)", "technique": "fluorescence polarization", "molecule type": "folded DNA", "Kd [nM]": 37}
{"Sequence": "GGGACGCGUGGUACCAGGCCGAUCUAUGGACGCUAUAGGCACACCGGAUACUUUAACGAUUGGCUAAGCUUCCGCGGGGAUC (structured RNA; stem-loops, bulges, tri-bridged)", "target": "ELAVL1 full length assumed (Homo sapiens, UniProt Q15717)", "technique": "SPR", "molecule type": "folded RNA", "Kd [nM]": 1570}
{"Sequence": "GTGTGGGTGTG (ssDNA)", "target": "CDC13 1-924 R635A (Saccharomyces cerevisiae, UniProt P32797)", "technique": "filter binding", "molecule type": "single-stranded DNA", "notes": "KCl 750 mM", "Kd [nM]": "140 ± 33"}
{"note": "Some of these lines once more:"}
{"Sequence": "GATCCCCCAATGCTTCGTTTCGTATCACACACCCCAAAGCCTTCTGCTTTGAATGCTGCC (dsDNA; 60 bp duplex)", "target": "creN7 1-60 (Saccharolobus solfataricus, UniProt Q97ZE3)", "technique": "EMSA", "molecule type": "double-stranded DNA, one strand shown", "notes": "apparent", "Kd [nM]": 113}
{"Sequence": "ATGAGCGAGATG (dsDNA)", "target": "msl-2 520-570 C560G (Drosophila melanogaster, UniProt P50534)", "technique": "NMR titration", "molecule type": "double-stranded DNA, one strand shown", "notes": "apparent, stoichiometry fixed", "Kd [nM]": 2700}
